# Experimental data of several laboratories.
# Lines come from different studies, so protocols differ. ± gives the spread as reported.
# Target: Beta-secretase 1 (BACE1, Homo sapiens, UniProt P56817)
Compound,assay,setting,quantity,value
CCc1ccc(/C=C/C(=O)c2ccc(N3CCNCC3)cc2)cc1,"enzyme activity, inhibitor, fluorescence",with preincubation,IC50,16.4 µM
N=C(N)N/N=C(/C=C/c1ccccc1)c1cn(Cc2ccccc2)c2ccccc12,"enzyme activity, inhibitor, FRET",,IC50,203 µM
N#Cc1ccc(Cn2cccc2C(/C=C/c2ccccc2)=N/NC(=N)N)cc1,"enzyme activity, inhibitor, FRET",,IC50,112 µM
O=C(/C=C/c1ccc(C(F)(F)F)cc1)c1ccc(N2CCNCC2)cc1,"enzyme activity, inhibitor, fluorescence",with preincubation,IC50,15.3 µM
CC(C)=CCCC1(C)C=Cc2c(ccc3cc(-c4cc(O)cc(O)c4CC=C(C)C)oc23)O1 (centres unmarked),"enzyme activity, inhibitor, FRET",,Ki,0.45 µM
Fc1ccc(N2CCN(Cc3nnc(-c4ccccc4)o3)CC2)cc1,"enzyme activity, inhibitor, FRET",,IC50,1.48 µM
CC(C)=CCCC(C)=CCCC(C)=CCc1c(O)cc(O)c(CC=C(C)C)c1-c1cc2ccc(O)cc2o1,"enzyme activity, inhibitor, FRET",,IC50,2.03 µM
CC(=O)c1c(O)ccc2ccc(=O)oc12,,,IC50,18.4 ± 1.04 µM
